Published values of several laboratories.
Lines come from different studies, so protocols differ. ± gives the spread as reported.
CPL: CPL (Toxoplasma gondii, UniProt Q6DMN0)
PTGS1: Prostaglandin G/H synthase 1 (PTGS1, Ovis aries, UniProt P05979)
Chain of UniProt P05979 (whole entry, looked up): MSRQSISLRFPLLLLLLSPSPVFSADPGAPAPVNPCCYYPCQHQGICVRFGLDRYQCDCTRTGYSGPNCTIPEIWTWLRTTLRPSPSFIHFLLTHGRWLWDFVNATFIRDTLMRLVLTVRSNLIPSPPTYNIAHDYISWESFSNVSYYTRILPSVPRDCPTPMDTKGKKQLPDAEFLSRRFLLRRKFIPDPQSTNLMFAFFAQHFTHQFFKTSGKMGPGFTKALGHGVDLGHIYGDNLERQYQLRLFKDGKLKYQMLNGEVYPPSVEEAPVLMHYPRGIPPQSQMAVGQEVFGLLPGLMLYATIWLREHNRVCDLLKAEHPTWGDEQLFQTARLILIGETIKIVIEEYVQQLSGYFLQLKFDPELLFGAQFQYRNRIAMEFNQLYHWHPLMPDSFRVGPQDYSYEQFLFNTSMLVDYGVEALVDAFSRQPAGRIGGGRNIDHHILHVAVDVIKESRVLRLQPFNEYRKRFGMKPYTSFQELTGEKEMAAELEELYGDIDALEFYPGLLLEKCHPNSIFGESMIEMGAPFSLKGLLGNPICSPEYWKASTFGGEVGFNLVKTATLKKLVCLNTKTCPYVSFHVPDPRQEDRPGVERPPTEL
HDAC6: Protein deacetylase HDAC6 (HDAC6, Homo sapiens, UniProt Q9UBN7)
Chain of UniProt Q9UBN7 (whole entry, looked up): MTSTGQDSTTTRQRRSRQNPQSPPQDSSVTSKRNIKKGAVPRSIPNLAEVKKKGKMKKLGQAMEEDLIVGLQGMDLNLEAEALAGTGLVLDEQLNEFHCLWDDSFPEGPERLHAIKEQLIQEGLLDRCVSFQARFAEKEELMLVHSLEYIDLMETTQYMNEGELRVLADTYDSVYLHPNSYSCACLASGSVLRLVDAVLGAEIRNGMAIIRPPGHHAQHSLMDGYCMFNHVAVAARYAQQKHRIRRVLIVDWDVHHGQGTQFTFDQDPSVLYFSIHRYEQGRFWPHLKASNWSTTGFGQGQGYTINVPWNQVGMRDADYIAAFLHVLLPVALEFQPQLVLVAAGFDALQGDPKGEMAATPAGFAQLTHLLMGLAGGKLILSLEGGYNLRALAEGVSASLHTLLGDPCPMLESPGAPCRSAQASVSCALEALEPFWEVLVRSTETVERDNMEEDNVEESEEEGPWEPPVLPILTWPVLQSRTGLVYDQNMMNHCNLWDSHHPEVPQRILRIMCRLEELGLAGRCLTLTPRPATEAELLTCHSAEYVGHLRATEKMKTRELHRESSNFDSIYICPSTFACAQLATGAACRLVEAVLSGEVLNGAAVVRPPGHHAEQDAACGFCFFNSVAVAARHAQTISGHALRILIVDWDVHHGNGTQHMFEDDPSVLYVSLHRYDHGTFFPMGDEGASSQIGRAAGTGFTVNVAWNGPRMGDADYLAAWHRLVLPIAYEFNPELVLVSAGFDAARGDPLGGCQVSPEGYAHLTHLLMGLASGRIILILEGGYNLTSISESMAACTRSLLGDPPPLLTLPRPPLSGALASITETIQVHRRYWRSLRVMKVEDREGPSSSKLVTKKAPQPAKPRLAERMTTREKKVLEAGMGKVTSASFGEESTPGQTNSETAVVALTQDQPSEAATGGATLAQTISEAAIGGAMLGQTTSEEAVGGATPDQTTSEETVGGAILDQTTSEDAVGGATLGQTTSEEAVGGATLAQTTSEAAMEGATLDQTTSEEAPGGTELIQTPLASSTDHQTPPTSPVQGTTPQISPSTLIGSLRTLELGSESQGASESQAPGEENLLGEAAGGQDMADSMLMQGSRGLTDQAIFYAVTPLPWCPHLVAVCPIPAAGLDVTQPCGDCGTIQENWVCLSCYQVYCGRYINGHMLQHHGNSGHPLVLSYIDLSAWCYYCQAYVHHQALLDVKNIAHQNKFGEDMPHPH
gag-pol integrase: Gag-Pol polyprotein, integrase (gag-pol, Human immunodeficiency virus type 1 group M subtype B, UniProt P04585)
Chain of UniProt P10275 (whole entry, looked up): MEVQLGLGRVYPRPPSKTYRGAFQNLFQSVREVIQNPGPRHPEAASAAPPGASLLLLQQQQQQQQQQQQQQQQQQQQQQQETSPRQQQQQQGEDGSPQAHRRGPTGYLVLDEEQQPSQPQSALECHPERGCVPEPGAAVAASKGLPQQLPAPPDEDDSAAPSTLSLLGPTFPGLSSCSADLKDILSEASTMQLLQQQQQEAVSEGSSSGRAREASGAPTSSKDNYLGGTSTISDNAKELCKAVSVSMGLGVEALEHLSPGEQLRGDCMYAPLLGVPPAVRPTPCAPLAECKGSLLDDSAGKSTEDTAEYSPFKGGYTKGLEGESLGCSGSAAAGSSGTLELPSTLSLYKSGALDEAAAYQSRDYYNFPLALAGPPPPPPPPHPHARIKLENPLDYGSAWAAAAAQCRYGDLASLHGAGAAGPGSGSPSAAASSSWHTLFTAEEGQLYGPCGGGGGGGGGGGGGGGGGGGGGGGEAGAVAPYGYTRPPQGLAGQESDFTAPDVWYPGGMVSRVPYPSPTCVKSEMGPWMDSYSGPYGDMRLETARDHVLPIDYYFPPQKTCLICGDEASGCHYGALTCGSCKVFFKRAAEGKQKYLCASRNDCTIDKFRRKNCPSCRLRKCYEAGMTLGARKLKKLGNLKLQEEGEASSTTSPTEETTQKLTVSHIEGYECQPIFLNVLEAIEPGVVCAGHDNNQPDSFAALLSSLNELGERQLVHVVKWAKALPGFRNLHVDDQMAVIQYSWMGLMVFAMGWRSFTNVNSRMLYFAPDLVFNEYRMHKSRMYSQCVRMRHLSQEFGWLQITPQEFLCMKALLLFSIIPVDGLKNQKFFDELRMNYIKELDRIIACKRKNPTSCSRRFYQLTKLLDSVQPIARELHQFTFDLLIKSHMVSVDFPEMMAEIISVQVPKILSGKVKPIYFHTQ
Chain of UniProt P09923 (whole entry, looked up): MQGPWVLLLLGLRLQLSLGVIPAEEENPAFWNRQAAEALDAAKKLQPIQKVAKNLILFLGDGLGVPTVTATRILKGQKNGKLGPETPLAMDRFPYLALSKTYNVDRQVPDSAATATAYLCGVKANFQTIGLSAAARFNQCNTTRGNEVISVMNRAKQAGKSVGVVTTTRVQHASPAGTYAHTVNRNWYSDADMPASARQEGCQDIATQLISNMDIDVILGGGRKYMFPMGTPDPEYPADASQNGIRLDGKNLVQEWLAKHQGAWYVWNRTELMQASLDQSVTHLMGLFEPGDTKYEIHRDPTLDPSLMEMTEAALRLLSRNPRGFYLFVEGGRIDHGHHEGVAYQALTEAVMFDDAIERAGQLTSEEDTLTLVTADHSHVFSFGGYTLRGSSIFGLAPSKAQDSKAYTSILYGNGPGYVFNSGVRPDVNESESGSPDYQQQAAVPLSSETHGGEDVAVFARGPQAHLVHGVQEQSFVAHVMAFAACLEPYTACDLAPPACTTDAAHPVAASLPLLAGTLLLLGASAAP
Chain of UniProt P32247 (whole entry, looked up): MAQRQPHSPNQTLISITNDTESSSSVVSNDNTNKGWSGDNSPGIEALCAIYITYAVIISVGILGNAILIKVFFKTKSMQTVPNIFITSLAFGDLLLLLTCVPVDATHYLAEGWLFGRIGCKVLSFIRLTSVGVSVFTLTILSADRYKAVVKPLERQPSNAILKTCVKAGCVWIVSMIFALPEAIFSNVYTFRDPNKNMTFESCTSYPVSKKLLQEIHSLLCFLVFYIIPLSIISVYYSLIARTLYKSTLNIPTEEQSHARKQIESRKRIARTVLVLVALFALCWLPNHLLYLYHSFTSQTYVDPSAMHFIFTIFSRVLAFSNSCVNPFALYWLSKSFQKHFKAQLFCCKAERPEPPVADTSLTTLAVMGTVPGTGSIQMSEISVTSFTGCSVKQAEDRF
Chain of UniProt P50391 (whole entry, looked up): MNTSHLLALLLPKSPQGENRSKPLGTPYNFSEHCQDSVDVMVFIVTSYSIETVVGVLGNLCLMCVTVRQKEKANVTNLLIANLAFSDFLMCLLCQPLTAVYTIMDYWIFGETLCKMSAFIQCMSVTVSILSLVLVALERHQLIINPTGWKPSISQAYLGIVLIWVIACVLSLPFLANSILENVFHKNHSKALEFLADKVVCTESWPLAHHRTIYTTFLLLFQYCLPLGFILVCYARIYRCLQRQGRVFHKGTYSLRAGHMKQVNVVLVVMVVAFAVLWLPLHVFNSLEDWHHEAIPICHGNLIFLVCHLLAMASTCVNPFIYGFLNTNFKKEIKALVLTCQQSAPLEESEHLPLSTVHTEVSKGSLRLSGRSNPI
Chain of UniProt P20905 (whole entry, looked up): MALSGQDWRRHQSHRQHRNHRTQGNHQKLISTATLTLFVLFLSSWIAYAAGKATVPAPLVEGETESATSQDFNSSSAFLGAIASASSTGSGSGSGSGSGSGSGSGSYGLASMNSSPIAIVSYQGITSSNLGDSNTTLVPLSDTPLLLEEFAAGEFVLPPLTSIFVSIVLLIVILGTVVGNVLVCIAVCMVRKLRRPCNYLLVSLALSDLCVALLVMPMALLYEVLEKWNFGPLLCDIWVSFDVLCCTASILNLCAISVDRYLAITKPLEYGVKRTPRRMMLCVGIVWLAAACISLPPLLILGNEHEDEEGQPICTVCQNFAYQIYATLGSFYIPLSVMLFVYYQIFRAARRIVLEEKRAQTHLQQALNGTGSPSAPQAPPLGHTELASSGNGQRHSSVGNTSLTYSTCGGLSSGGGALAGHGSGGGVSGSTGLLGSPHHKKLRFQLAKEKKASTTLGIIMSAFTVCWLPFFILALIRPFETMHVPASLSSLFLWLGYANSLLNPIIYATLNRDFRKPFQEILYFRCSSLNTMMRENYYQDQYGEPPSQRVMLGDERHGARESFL

Structure (SMILES) | target | assay | test system | conditions | IC50 [µM]
N#Cc1nc(N2CCOCC2)nc(N(Cc2ccc(F)cc2)CC2CCCNC2)n1 (stereo not shown) | CPL | enzyme activity, inhibitor, Z-L-R-AMC hydrolysis fluorescence | – | – | 0.181
Cc1[nH]c2ccccc2c1C(c1ccccc1)C(C#N)C#N (stereo not shown) | Cocaine esterase (CES2, Homo sapiens, UniProt O00748) | enzyme activity, inhibitor | human liver microsomes | pH 7.4, 37 °C, added: fluorescein diacetate | 2.98 ± 0.53
N#Cc1cc(C(=O)c2ccc3ccccc3c2O)c[nH]c1=O | PTGS1 | enzyme activity, inhibitor, ELISA | – | – | 429
C=C(NC(=O)C(=C)NC(=O)c1csc(C2=NC3c4csc(n4)C4NC(=O)c5csc(n5)C(C(C)(O)C(C)O)NC(=O)C5CSC(=N5)C(=CC)NC(=O)C(C(C)O)NC(=O)c5csc(n5)C3(CC2)NC(=O)C(C)NC(=O)C(=C)NC(=O)C(C(C)C)NC2C=Cc3c(C(C)O)cc(nc3C2O)C(=O)OC4C)n1)C(N)=O (stereo not shown) | PSMB6 (Homo sapiens, UniProt P28072) | caspase-like activity, inhibitor | purified human 20S proteasome | 37 °C, 15 min preincubation, added: Ac-Nle-Pro-Nle-Asp-AMC | 1.2 ± 0.04
CCCCCc1c(CC=C(C)C)c(OCC=C(C)C)c2c(c1CC=C(C)C)OC(C)(C)C1=C2[C@@H](O)[C@@](C)(O)CC1 | Si (Rattus norvegicus, UniProt P23739) | enzyme activity, inhibitor, absorbance | – | – | > 6000
CC[C@@H]1C(=O)N(C)c2cnc(Nc3ccc(C(=O)NCCCC[C@H](NC(=O)COCCOCCNC(=O)COCCOCCNC(=O)COCCOCCNC(=O)COCCOCCNC(=O)[C@@H](NC(=O)[C@H](CO)NC(=O)[C@H](Cc4cncn4CCCCCCCCc4ccccc4)NC(=O)[C@H](CC(C)C)NC(=O)[C@@H]4CCCN4C(C)=O)[C@@H](C)OP(=O)(O)O)C(N)=O)cc3OC)nc2N1C1CCCC1 | ALK (Homo sapiens, UniProt Q9UM73, C1156Y) | enzyme activity, inhibitor | – | – | 9.9
O=C(CCCCCCC(=O)Nc1ccc(N=Nc2ccccc2)cc1)NO | HDAC6 | enzyme activity, inhibitor | – | cis isomer, irradiated | 0.048 ± 0.014
COc1ccc(F)cc1S(=O)(=O)Nc1cnc2c(c1)C(=O)NCCO2 | Intestinal-type alkaline phosphatase (Homo sapiens, UniProt P09923) | enzyme activity, inhibitor, absorbance | – | pH 7.5 | 1.56
CC[C@H](C)[C@H](NC(=O)[C@H](CCCNC(=N)N)NC(=O)[C@H](CCCNC(=N)N)NC(=O)[C@@H]1CCCN1C(=O)[C@@H]1CCCN1C(=O)[C@H](CCCNC(=N)N)NC(=O)[C@@H]1CCCN1C(=O)[C@H](CCCNC(=N)N)NC(=O)[C@@H]1CCCN1C(=O)[C@H](CC(C)C)NC(=O)[C@H](Cc1ccc(O)cc1)NC(=O)[C@@H]1CCCN1C(=O)[C@@H]1CCCN1C(=O)[C@H](CCCCN)NC(=O)[C@H](CC(=O)O)NC(=O)[C@@H](N)C(C)C)C(=O)N[C@@H](Cc1ccc(O)cc1)C(=O)N[C@@H](CC(N)=O)C(=O)N[C@@H](CCCNC(=N)N)C(=O)N1CCN(c2cc3c(cc2F)c(=O)c(C(N)=O)cn3C2CC2)CC1 | dnaK (Escherichia coli, UniProt P0A6Y8) | ligand displacement, FP | – | pH 7.5 | 0.99
CCCC[C@H](NC(=O)[C@H](CC(C)C)NC(=O)[C@H](Cc1c[nH]cn1)NC(=O)CNC(=O)[C@@H](NC(=O)[C@H](C)NC(=O)[C@H](Cc1c[nH]c2ccccc12)NC(=O)[C@H](CCC(N)=O)NC(=O)[C@H](CC(N)=O)NC(=O)CNC(=O)[C@H](Cc1ccc(O)cc1)NC(=O)[C@H](CCCNC(=N)N)NC(=O)[C@H](CCC(N)=O)NC(=O)[C@@H]1CCC(=O)N1)C(C)C)C(N)=O | BRS3 (Homo sapiens, UniProt P32247) | human GRPR activity, cell-based | – | – | > 3
CC(=O)N[C@@H](CCCNC(=N)N)C(=O)N[C@@H](Cc1ccc(O)cc1)C(=O)N[C@@H](CCCNC(=N)NC(=O)NCCCCN)C(=O)N[C@@H](CC(C)C)C(=O)N[C@@H](CCCNC(=N)N)C(=O)N[C@H](Cc1ccc(O)cc1)C(N)=O | NPY4R (Homo sapiens, UniProt P50391) | β-arrestin 1 recruitment, antagonist | HEK293T | added: 3 nM human pancreatic polypeptide | 1.31 ± 0.39
COc1cc(OC)c(C(=O)/C=C/c2ccc(N(C)CCO)cc2)c(OC)c1 | PTGS1 | enzyme activity, inhibitor, ELISA | – | – | 48.2
O=C(O)c1cccc(CP(=O)(O)O)n1 | Beta-lactamase L1 (Stenotrophomonas maltophilia, UniProt P52700) | enzyme activity, inhibitor, absorbance | – | with preincubation | 1.48
Cc1cccc2c1NC(=O)C2=Cc1ccc(-c2cccc(C(=O)N3CCCN(C)CC3)c2)o1 (mixture of isomers) | PIM3 (Homo sapiens, UniProt Q86V86) | enzyme activity, inhibitor | – | – | 0.00988
CC[C@H](C)[C@@H]1NC(=O)[C@@H]2CCCN2C(=O)[C@@H]2CCCN2C(=O)[C@H]([C@@H](C)CC)NC(=O)[C@H](CO)NC(=O)[C@H](CCCCN)NC(=O)[C@H]([C@@H](C)O)NC(=O)[C@@H]2CSSC[C@H](NC1=O)C(=O)N[C@@H](Cc1ccccc1)C(=O)N1CCC[C@H]1C(=O)N[C@@H](CC(=O)O)C(=O)NCC(=O)N[C@@H](CCCNC(=N)N)C(=O)N2 | Lymphocyte function-associated antigen 3, with CD2 (CD58, Homo sapiens, UniProt P19256) | – | human cells | – | > 50
O=C(CCCCCCC(=O)Nc1ccccc1N=Nc1ccccc1)NO | HDAC6 | enzyme activity, inhibitor | – | cis isomer, irradiated | 0.21 ± 0.08

Structure (SMILES) | target | assay | test system | conditions | IC50 [µM]
C=C1C(=O)N[C@@H](C)C(=O)N(C)[C@@H](C)C(=O)N[C@@H]([C@H](OC(=O)[C@@H](NC(C)=O)[C@H](O)C(C)C)C(C)C)C(=O)N(C)[C@@H]([C@@H](C)OC)C(=O)O[C@H](C)[C@H](NC(C)=O)C(=O)O[C@H](Cc2ccccc2)C(=O)N1C | Guanine nucleotide-binding protein subunit alpha-11 (Homo sapiens, UniProt P29992, R183C) | inverse agonist, measured: IP1 | HEK293 with Gα11 R183C | 30 min, basal | 0.0398
C[C@@H]1CCN(c2nc3ccc(Cl)cc3o2)CCN1S(=O)(=O)c1cccc(F)c1 | HCRTR2 (Homo sapiens, UniProt O43614) | calcium signal, antagonist, fluorescence | – | – | 1.65
C=CC[C@](C)(NC(=O)[C@H](CC(C)C)NC(=O)[C@H](CCCCN)NC(=O)[C@H](CC(C)C)NC(=O)[C@](C)(CC=C)NC(=O)[C@H](Cc1ccccc1)NC(=O)[C@H](Cc1ccc(O)cc1)NC(=O)[C@H](C)NC(=O)[C@@H](N)[C@@H](C)O)C(=O)NCC(=O)N[C@@H](CCCNC(=N)N)C(=O)N[C@@H](Cc1c[nH]c2ccccc12)C(N)=O | gag-pol integrase | integrase strand transfer, inhibitor | – | – | > 111
CC(C)CCN(Cc1ccncc1)c1nc(C#N)nc(N2CCOCC2)n1 | CPL | enzyme activity, inhibitor, Z-L-R-AMC hydrolysis fluorescence | – | – | 0.107
CNC(=[Se])NC | Urea transporter 1 (Slc14a1, Rattus norvegicus, UniProt P97689) | urea transport, inhibitor | rat erythrocytes | 15 min | > 25000
N=C(N)SCc1ccc(B(O)O)cc1 | TMPRSS2 (Homo sapiens, UniProt O15393) | enzyme activity, inhibitor, fluorescence | – | – | 1.44
O=C(O)c1ccccc1Nc1ccc(Oc2ccc(C(F)(F)F)cc2)cc1 | Androgen receptor (AR, Homo sapiens, UniProt P10275) | reporter gene, antagonist, MMTV-Luc reporter | MDA-kb2 | 20 h, added: 0.2 nM DHT (EC50) | 3.7 ± 1.8
COc1cccc(/C=C/C(=O)Cc2ccccc2)c1OC | PTGS1 | enzyme activity, inhibitor, ELISA | – | – | 50
O=C[C@H](C[C@H]1CCNC1=O)NC(=O)[C@H](Cc1ccccc1)NC(=O)OCc1ccccc1 | Genome polyprotein, 3C protease (Human enterovirus D68, UniProt Q68T42) | 3C protease activity, inhibitor, FRET | – | – | 0.11 ± 0.02
CC[C@H](C)[C@@H]1NC(=O)[C@H](Cc2ccccc2)NC(=O)[C@H](C)NC(=O)[C@@H](NC(=O)[C@@H](NC(=O)[C@H](CO)NC(=O)[C@@H](N)Cc2ccc(O)cc2)[C@@H](C)O)CSC(=O)[C@H](CCSC)NC1=O | Accessory gene regulator protein C (Staphylococcus aureus, UniProt O33590) | – | – | – | 0.0013
COC(=O)C1CN1S(=O)(=O)c1ccc(N)cc1 (stereo not shown) | P4HB (Homo sapiens, UniProt P07237) | enzyme activity, inhibitor, absorbance | – | pH 7.6 | > 200
CSc1ccc2c(c1)C(N1CCN(C)CC1)Cc1ccccc1S2 (stereo not shown) | 5-hydroxytryptamine receptor 1 (5-HT7, Drosophila melanogaster, UniProt P20905) | calcium response, antagonist, calcium imaging | HEK293T | added: 5-HT near EC50 | 9
Cc1ccccc1CN(CCC(C)C)c1nc(C#N)nc(N2CCOCC2)n1 | CPL | enzyme activity, inhibitor, Z-L-R-AMC hydrolysis fluorescence | – | – | 0.107
CC(C)C[C@@H]1NC(=O)[C@H](CCCCN)NC(=O)[C@H](CC(C)C)NC(=O)[C@@](C)(NC(=O)[C@H](Cc2ccccc2)NC(=O)[C@H](Cc2ccc(O)cc2)NC(=O)[C@H](C)NC(=O)[C@@H](N)[C@@H](C)O)CCCC=CCCC[C@@](C)(C(=O)NCC(=O)N[C@@H](CCCNC(=N)N)C(=O)N[C@@H](Cc2c[nH]c3ccccc23)C(N)=O)NC1=O | gag-pol integrase | integrase 3'-processing, inhibitor | – | – | 9 ± 1
O=C1c2ccccc2[Se](=O)N1c1ccccc1 (stereo not shown) | HDAC9 (Homo sapiens, UniProt Q9UKV0) | enzyme activity, inhibitor, fluorescence | – | – | 2.37

For quick reference, copied from above:
Structure (SMILES) | target | assay | test system | conditions | IC50 [µM]
N=C(N)SCc1ccc(B(O)O)cc1 | TMPRSS2 (Homo sapiens, UniProt O15393) | enzyme activity, inhibitor, fluorescence | – | – | 1.44
O=C(O)c1ccccc1Nc1ccc(Oc2ccc(C(F)(F)F)cc2)cc1 | Androgen receptor (AR, Homo sapiens, UniProt P10275) | reporter gene, antagonist, MMTV-Luc reporter | MDA-kb2 | 20 h, added: 0.2 nM DHT (EC50) | 3.7 ± 1.8
COc1cccc(/C=C/C(=O)Cc2ccccc2)c1OC | PTGS1 | enzyme activity, inhibitor, ELISA | – | – | 50
O=C[C@H](C[C@H]1CCNC1=O)NC(=O)[C@H](Cc1ccccc1)NC(=O)OCc1ccccc1 | Genome polyprotein, 3C protease (Human enterovirus D68, UniProt Q68T42) | 3C protease activity, inhibitor, FRET | – | – | 0.11 ± 0.02
